# Results of several laboratories.
# Parts stem from different laboratories: compare values within a part only. Substitutions count along the parent as printed.

# Series 1
# Target: CCNE2, cyclin fold, Cln2 fusion (human)
# Technique: yeast growth competition, sequencing
# Matrix: yeast
# Setting: weak parent motif
# Relative to: not given
# Reading: higher = stronger binding
# Starting sequence: RB1 docking peptide (human); PKPLKKLRFDIEG; partner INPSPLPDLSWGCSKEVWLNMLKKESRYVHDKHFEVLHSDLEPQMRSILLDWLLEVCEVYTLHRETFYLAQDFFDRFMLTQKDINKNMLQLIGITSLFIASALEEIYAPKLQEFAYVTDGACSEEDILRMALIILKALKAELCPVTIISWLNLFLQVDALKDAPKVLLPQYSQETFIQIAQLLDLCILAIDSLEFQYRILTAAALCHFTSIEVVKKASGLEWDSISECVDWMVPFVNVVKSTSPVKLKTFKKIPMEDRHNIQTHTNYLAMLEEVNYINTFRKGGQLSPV
Change,normalised enrichment score
F9T,0.447
D10T,0.49
F9C,0.374
D10I,-0.377
P1Y,0.299
K2W,0.287
F9W,0.12
L4C,0.887
E12V,-0.209
P3F,0.24
E12N,0.941
I11Y,-0.187
P3Q,0.306
K2M,0.746
L4W,0.383
L7F,0.474
K2S,0.979

# Series 2
# Target: Interferon regulatory factor 3, full length, phosphomimetic (IRF3, Homo sapiens, UniProt Q14653, residues 1-427, S386D/S396D/S398D/S402D/T404D/S405D)
# UniProt Q14653, sequence (whole entry, unmodified, looked up): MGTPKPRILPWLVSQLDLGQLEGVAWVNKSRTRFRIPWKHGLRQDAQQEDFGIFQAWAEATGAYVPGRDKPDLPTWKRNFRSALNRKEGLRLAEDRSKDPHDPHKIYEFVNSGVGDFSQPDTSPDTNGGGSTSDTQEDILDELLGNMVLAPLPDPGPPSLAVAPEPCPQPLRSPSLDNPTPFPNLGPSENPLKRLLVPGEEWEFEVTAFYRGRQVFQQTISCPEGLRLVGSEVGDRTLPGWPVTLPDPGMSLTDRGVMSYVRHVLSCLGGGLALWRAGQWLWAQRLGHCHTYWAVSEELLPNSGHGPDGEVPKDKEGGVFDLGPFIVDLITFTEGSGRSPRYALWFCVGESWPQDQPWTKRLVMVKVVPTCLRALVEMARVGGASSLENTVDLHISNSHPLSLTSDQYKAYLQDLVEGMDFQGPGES
# Technique: protein-binding microarray
# Molecule type: double-stranded DNA, one strand shown
# Matrix: in vitro
# Tested at: 2540 nM top
# Setting: 60-bp whole probe
# With: salmon DNA 0.4 mg/ml
# Relative to: random background probes
# Reading: higher = stronger binding
# All sequences stand within: GCCTAGCAC … GTCTTGATTCGCTTGACGCTGCTG
Sequence,fitted relative affinity [z-score]
TTAGATTTCAGCTCCGATTAGTGCTAG,0.855
TCATGTTTCCATTTTCTACTGTGCTAG,7.14
TGAAGTTTTAATAACACAGAGTGCTAG,-0.0412
GACGGACAGCTTATCCTGACGTGCTAG,-0.292
TTCGGTATCGGGTATCGGTTAGTGCTA,2.82
TTAGATATCCGTATCGATTAGTGCTAG,2.41
TTAAGACTGGGGTTTCGGTTAGTGCTA,2.61
TTAGGTAACGACTTTCGGTTAGTGCTA,1.71
GGCTTTTTTTTTTTTTTTTTGTGCTAG,0.288

# Series 3
# Target: Sal-like protein 4, full length isoform B (SALL4, Homo sapiens, UniProt Q9UJQ4-2, residues 1-616)
# Technique: universal PBM
# Molecule type: double-stranded DNA, one strand shown
# Matrix: in vitro
# Tested at: not given
# Setting: 8-mer, flanks averaged, mean of replicates
# Reading: higher = stronger binding
Sequence,E-score
AAAAGTAG,0.203
AGTGGTCA,-0.105
AACAGACA,0.0035
CACGTGGG,-0.226
CCCAGCCG,-0.345
AATACGAA,0.28
TCATGCCA,0.129
ACGACATA,0.11
ACCCACGT,-0.114

# Further values, each from its own experiment
Substance,tested on,test,system,setting,how to read,endpoint,value
"SRP14 (Homo sapiens, UniProt P37108)","SRP9 (Homo sapiens, UniProt P49458)",cross-linking MS,,hits only,,interaction screen,cross-linked
"PhoQ, residues 284 288 289 292 302 303 AAQSYM","PhoP, residues 12 14 15 18 19 YHFSH (Escherichia coli, UniProt P23836)","Sort-seq, refers to: YFP reporter",E. coli,"PhoQ-PhoP variant library, with: 10 µM Mg2+","relative to: high Mg2+ state, higher = stronger signaling",fold induction,1.45
"SNX2 (Homo sapiens, UniProt O60749)","SNX6 (Homo sapiens, UniProt Q9UNH7)",cross-linking MS,,hits only,,interaction screen,cross-linked
"NDUFS2 (Homo sapiens, UniProt O75306)","NDUFA7 (Homo sapiens, UniProt O95182)",cross-linking MS,cell fractions,with: DSSO,,cross-linked residues,K367 to K40
"VARS1 (Homo sapiens, UniProt P26640)","CCDC88C (Homo sapiens, UniProt Q9P219)",cross-linking MS,cell fractions,with: DSSO,,cross-linked residues,K552 to T333

# Repeated from above (series 3):
Sequence,E-score
AACAGACA,0.0035
CACGTGGG,-0.226
CCCAGCCG,-0.345
AATACGAA,0.28
TCATGCCA,0.129
ACGACATA,0.11
ACCCACGT,-0.114
